# Assay results pooled from the literature.
# Numbered parts are unrelated; each lists some results of a single study.

# Set 1
# Target: RING finger protein unkempt homolog, zinc fingers 1-6, GST-SBP tag (UNK, Homo sapiens, UniProt Q9C0B0, residues 30-357)
# UniProt Q9C0B0, sequence (30-357, looked up): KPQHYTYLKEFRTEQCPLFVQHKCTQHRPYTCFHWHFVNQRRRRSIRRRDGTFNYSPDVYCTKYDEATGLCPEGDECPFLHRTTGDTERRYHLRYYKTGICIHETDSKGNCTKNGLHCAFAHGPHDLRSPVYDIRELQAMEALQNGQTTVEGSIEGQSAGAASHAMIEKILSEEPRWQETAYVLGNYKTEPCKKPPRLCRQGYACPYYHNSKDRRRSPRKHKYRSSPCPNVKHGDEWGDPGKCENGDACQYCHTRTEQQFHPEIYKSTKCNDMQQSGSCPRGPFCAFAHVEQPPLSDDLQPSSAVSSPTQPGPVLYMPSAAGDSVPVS
# Technique: RNA Bind-n-Seq
# Molecule type: RNA
# Sample: in vitro
# Concentration: not given
# Notes: RNA with constant flanks, human and mouse sites, ends assumed
# Baseline: input RNA pool
# Reading: higher = stronger binding
Sequence,bound/input enrichment [ratio]
GGGAGUUCUACAGUCCGACGAUCUUUAUUCCGUAAAACAUGAAGGACAAAACUCAAAAAUAUAUUUCAAGUCAACGGCCAGAAAACUCUCACCUUCUUCCCGCCCAAAAGGACCUUUCUGUACAUGACACUUUUUGUUGGUUUCAACAGAGGAUUGAGCAUCA,0.586
GGGAGUUCUACAGUCCGACGAUCGAAUACAUUGAUCAAGGUCGGAAUCCCCAGCUCUACACCAAAGAAUGCCUGGAGAGGGCUCUAGCUAAAAACGAGCAAGUCAAGGGCAAGAUCGACACAAUGAAGAAAUUUAAAAGCCUACAACAGAGGAUUGAGCAUCA,0.178
GGGAGUUCUACAGUCCGACGAUCAUGCAGAGACUCCCCAUGCAAUCUGAAUGAAACCGGUGUUGGCUGGAAUACUUUUUCUCUUCUGUGAGCUAUGUUAAUUCUGUCUCCAAUGGGCCCAAUGUUUGAAAAGUCAGAUGUCUACAACAGAGGAUUGAGCAUCA,0.154
GGGAGUUCUACAGUCCGACGAUCACAAUAGAAACCAAACCAAAUGGGCACCCUCGGUUGCCGGGGGGCAGGUGGGGAGGGGGGUGGGAAGAAGGGAUGUCUGUCUGUCGUCCCCCUCCCCCUCUCCACUCUUUACCCACAAAGCAACAGAGGAUUGAGCAUCA,0.362

# Set 2
# Target: Histone acetyltransferase KAT6A, winged helix 2, GST fusion (KAT6A, Homo sapiens, UniProt Q92794, residues 85-181)
# Technique: protein binding microarray
# Molecule type: double-stranded DNA, one strand shown
# Sample: in vitro
# Concentration: not given
# Notes: 8-mer, flanks averaged, mean of 2 arrays, mostly near background
# Baseline: not given
# Reading: higher = stronger binding
# Residues (chain): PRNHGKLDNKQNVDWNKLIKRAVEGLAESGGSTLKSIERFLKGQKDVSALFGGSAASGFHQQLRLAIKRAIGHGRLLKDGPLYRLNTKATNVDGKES
Sequence,E-score
GCAATCAA,0.0808
ATCCGGCG,0.0484
AGCCGTCG,0.198
GTGAAGGA,-0.198
AATTTCAT,0.00305
GTACCCGA,-0.121

# Set 3
# Target: PABPC1L2, full length, GST fusion (mouse, UniProt A0ABA7IW68)
# Technique: RNAcompete
# Molecule type: RNA
# Sample: in vitro
# Concentration: 20 nM
# Notes: 7-mer, probes averaged, single round
# Baseline: mean of 7-mers
# Reading: higher = stronger binding
# Construct (chain): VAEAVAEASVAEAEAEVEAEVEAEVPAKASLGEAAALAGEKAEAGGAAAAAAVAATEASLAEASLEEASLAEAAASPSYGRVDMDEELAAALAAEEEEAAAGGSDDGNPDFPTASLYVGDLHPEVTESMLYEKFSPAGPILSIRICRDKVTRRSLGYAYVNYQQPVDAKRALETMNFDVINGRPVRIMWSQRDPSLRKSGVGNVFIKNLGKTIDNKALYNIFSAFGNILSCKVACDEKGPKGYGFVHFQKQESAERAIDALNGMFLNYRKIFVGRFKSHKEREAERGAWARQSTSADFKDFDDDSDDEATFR
Sequence,7-mer Z-score
CAGUUCC,-0.253
CUUCUCA,-0.434
CACCAAA,0.885
AUAAUGG,0.046
ACCUGAC,-0.2
GCUCCUG,-0.179

# Mixed results
Substance,target,test,test system,conditions,how to read,measurement,result
"PhoQ, residues 284 288 289 292 302 303 AGCYAI","PhoP, residues 12 14 15 18 19 SQCLL (Escherichia coli, UniProt P23836)","Sort-seq, refers to: YFP reporter",E. coli,"PhoQ-PhoP variant library, with: 10 µM Mg2+","baseline: high Mg2+ state, higher = stronger signaling",fold induction,3.08
